Measured values gathered from unrelated publications.
Each numbered part is a random draw from the data of one study; scales do not carry over between parts. Changes are numbered by the printed parent chain.

Study 1 — technique: DHFR PCA, deep sequencing; medium: yeast; with: (+)-ABA 17 µM; baseline: wild-type fitted maximum; reading: higher = stronger binding
Target: ABI1, truncated, D143A, DHFR fusion (Arabidopsis thaliana)
Setting: methotrexate growth selection, single substitutions
Starting sequence: PYL1, truncated, DHFR fusion (Arabidopsis thaliana); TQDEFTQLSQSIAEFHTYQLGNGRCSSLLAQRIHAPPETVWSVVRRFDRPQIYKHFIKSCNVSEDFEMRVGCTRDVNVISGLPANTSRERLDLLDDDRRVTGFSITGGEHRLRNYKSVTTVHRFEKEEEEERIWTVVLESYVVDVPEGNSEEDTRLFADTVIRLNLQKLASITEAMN; partner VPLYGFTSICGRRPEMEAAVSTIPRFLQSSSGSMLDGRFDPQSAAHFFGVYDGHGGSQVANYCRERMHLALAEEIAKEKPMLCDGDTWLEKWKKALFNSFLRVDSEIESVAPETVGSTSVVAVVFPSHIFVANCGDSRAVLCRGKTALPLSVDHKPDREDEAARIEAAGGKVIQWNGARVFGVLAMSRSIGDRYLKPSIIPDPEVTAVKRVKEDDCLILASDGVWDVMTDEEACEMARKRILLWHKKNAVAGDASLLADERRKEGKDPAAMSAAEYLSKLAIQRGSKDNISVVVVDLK
`Y18H` — result for “relative binding score”: 86.2%.
`D159F`: “relative binding score” -7.49%.
For `R24Y`, “relative binding score” read 45.9%.
`A175F` — result for “relative binding score”: 70%.
`V136G` — result for “relative binding score”: 2.08%.
`E152L`: “relative binding score” 70.5%.
`E131M`: “relative binding score” 93.4%.
`V136P`: “relative binding score” 8.44%.
For `T73I`, “relative binding score” read 85.9%.
`P50S`: “relative binding score” 5.71%.
Under “relative binding score”, `K126E` is recorded as 88.9%.
`L91W` — result for “relative binding score”: -6.97%.
`V142F` — result for “relative binding score”: 30.8%.
`R113P` — result for “relative binding score”: 47.4%.
`Q2Y` — result for “relative binding score”: 76%.
`K168I`: “relative binding score” 38.7%.
For `V76Y`, “relative binding score” read 48.1%.

Study 2 — technique: protein binding microarray; molecule type: double-stranded DNA, one strand shown; medium: in vitro; concentration: not given; baseline: not given; reading: higher = stronger binding
Target: Histone acetyltransferase KAT6A, winged helix 2, GST fusion (KAT6A, Homo sapiens, UniProt Q92794, residues 85-181)
Setting: 8-mer, flanks averaged, mean of 2 arrays, mostly near background
Residues (chain): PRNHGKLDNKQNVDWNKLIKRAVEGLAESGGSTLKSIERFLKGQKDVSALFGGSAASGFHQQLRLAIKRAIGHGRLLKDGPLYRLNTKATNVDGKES
For `AGAAACCT`, the E-score was 0.0438.
With `TGAAGCCA` the E-score was -0.0726.
`CATCTGTA` has an E-score of -0.131.
`TACACGCA` gave an E-score of -0.184.
`AACTATGA` gave an E-score of -0.125.
With `CAACTGGG` the E-score was -0.0131.
For `ACCTCGAA`, the E-score was 0.108.
`ATAGTGTC` gave an E-score of -0.015.
`GGCAAAAC` gave an E-score of 0.0575.
`TCATAACA` gave an E-score of 0.0326.
The E-score of `ATCTGACG` is reported as -0.0787.
`CCGGGTCC` gave an E-score of 0.0658.
With `AAGCCATT` the E-score was -0.0751.
For `GCAAGTGA`, the E-score was -0.0893.
The E-score of `AACAACGT` is reported as -0.219.
The E-score of `AGTGCTTA` is reported as -0.00352.
`ACGGGATG` gave an E-score of -0.17.
`TGTCCACA` gave an E-score of 0.00999.
With `CTCACTAC` the E-score was 0.0287.
The E-score of `GAAACTAA` is reported as -0.0605.
For `CAGTGCGG`, the E-score was 0.304.
The E-score of `AGGCGTTG` is reported as -0.0424.
`CACGGCGG` gave an E-score of 0.206.

Study 3 — technique: RNA Bind-n-Seq; molecule type: RNA; medium: in vitro; concentration: 365 nM; baseline: no-protein control; reading: higher = stronger binding
Target: RNA binding protein fox-1 homolog 2, RRM domain, GST-SBP tag (RBFOX2, Homo sapiens, UniProt O43251-10, residues 100-194)
Setting: natural RNA segment, single round, ends assumed
Construct (chain): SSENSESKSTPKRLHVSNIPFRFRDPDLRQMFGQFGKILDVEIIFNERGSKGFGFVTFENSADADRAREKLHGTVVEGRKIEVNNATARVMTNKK
Under “RBNS enrichment (R)”, `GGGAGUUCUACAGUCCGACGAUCCUCCUCAAACAUCUUUGGAGGAACUACCUGGCCAAAACACUGGCCAGGAUGCAGCAAGCAGCAGCAGGGGCUGACAGCAGGCUUACUGCCAUCAACAUUGCUUGAAAUGCUGGAAUUCUCGGGUGCCAA` is recorded as 0.276.
`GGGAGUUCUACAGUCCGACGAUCAACAGUCUCAAGGGCUGAAGCCCAUUCAUUUUAUAAGCUGUCACCAUGGGCUGCUGCUUCCUCUUGCCUUAAAAGUACACUCUCCAGGUGUGUCAGGGACUCUGUUUACUUGGAAUUCUCGGGUGCCAA`: “RBNS enrichment (R)” 0.39.
`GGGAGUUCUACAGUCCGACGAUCAGAAAUCUGAAAGCACCUCUGACAUUCCUUUUAUUAACUCACCUCUCAGUUGAAAGAUUUCUUCUUUGAAAGGUCAAGACCGUGAACUGAAAAAAGUGUUGGCCUUUUUGUGGAAUUCUCGGGUGCCAA`: “RBNS enrichment (R)” 0.672.
Under “RBNS enrichment (R)”, `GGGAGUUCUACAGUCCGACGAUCUUUUUUGAGCUUUAUUGUGGUUGUUAAUUUGAAGUAAUAAAGUAGAAAAGGACAAAGUGAUAUAGAUCCCUCUGUCUGCCUCUUUGCUCUUGGGGUUUCUCAUCGCUGACUGGAAUUCUCGGGUGCCAA` is recorded as 0.835.
`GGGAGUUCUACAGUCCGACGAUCGCAACUGUAGUCAUCUUAAAGGCUUCUCAUCCACUGUGCUUCUUAAUGUGUAAUUAAAGUGAGGAGAAAUUAAAUACUCUGAGGGCGUUUUAUAUAAUAAAUUCGUGAAGUGGAAUUCUCGGGUGCCAA` — result for “RBNS enrichment (R)”: 0.291.
Under “RBNS enrichment (R)”, `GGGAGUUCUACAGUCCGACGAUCUCUCUGAAGAACCCGGUUUCCGGUGUUGAGUGAUAGACUGGUUUGAGCGAGUACUGUUUUGUGGUGACAUCUUAGGUGUUUCCUUUCUCCCAGGCUGCUGCUCUGUGGUAUGGAAUUCUCGGGUGCCAA` is recorded as 0.46.
Under “RBNS enrichment (R)”, `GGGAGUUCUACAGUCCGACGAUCAAAAAUUAGACUGGAAAGUUCAGAAGUACUAAUGCUCCCACAGAAUUGAUUUUAACCCUGAGGUUACAAAGCAGAAGUUAAAUGAACAGCUAGAGGAAGCAGCCUUCCCAUGGAAUUCUCGGGUGCCAA` is recorded as 0.449.
`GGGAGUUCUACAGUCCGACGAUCUAAGAAAUAGUUUAACAGGAAAAAACGUUUAAGCACAAACAUUUUUAAGAUCUUAUGUUUUAAGUGGCAUUUUAGCACAGUAUUUAACAUUGUUGGUCACCGAGCUAUUUUGGAAUUCUCGGGUGCCAA` — result for “RBNS enrichment (R)”: 0.868.
`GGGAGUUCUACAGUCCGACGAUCGUCCUGGCAGCUUCUCUGAGGUGCUGCUCGUUUGCAUUAGUCCCGCCUCCUCCAUCUUUCAUGUGGUACCCAGGUAAAUGUGGACAUAGUGUGAAGGGACCUGUGGCCACUGGAAUUCUCGGGUGCCAA`: “RBNS enrichment (R)” 0.786.
For `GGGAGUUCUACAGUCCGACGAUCCCCUUUCCUCAGGAGGUACCGCUCUCCAAGGUGUGCUAGCAGUGGGCCCUGCCCAACUUCAGGCAGAACAGGGAGGCCCAGAGAUUACAGAUCCCCUCCUGUAAGUGGCCUGGAAUUCUCGGGUGCCAA`, “RBNS enrichment (R)” read 0.294.
For `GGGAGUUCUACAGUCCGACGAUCAAUCUAUGACUCCCAAUAUCUUCUAGAAUAAAGAAUUUUCCCUCUUUAACACAAGGGCCCUCCUUGUCAUUGACCUUAGCUAAACCAUGGCAAUUCAUAAAUAGAGGAAAUGGAAUUCUCGGGUGCCAA`, “RBNS enrichment (R)” read 0.439.
`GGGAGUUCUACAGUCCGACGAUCGGUGGCUGUUUAUUCUCUCUAACCAGCUCUGUUAGAUAUUUCCUCUAAUCAAGCUAAUUGGUUACUGAAAUGACAUAUUUAUCCCAACUUCUGUACCUUUGCACAAACUCUGGAAUUCUCGGGUGCCAA`: “RBNS enrichment (R)” 1.15.

Study 4 — technique: protein-binding microarray; molecule type: double-stranded DNA, one strand shown; medium: in vitro; concentration: 940 nM top; setting: 60-bp whole probe; with: salmon DNA 0.4 mg/ml; baseline: random background probes; reading: higher = stronger binding; constant ends, left off below: GCCTAGCAC … GTCTTGATTCGCTTGACGCTGCTG
Target: Interferon regulatory factor 5, full length, phosphomimetic (IRF5, Homo sapiens, UniProt Q13568-2, residues 1-514, S451D/S453D/S456D/S462D)
For `TCCTCTCTCTTTCCACTTGTGTGCTAG`, “fitted relative affinity” read 2.69 z-score.
`TCATCTAAAAAGTCTCTGACTGTGCTA` — result for “fitted relative affinity”: 0.214 z-score.
Under “fitted relative affinity”, `GACGGTATCGGAATCGGGACGTGCTAG` is recorded as 3.2 z-score.
Under “fitted relative affinity”, `GACGGACTGGGCATCGGGACGTGCTAG` is recorded as -0.79 z-score.
Under “fitted relative affinity”, `TTAGGACTGCATCTCCTTTAGTGCTAG` is recorded as -0.408 z-score.
Under “fitted relative affinity”, `GACGGTACCGGGTTTCGGGACGTGCTA` is recorded as 2.31 z-score.
For `TTAGATATCGGGTACCGATTAGTGCTA`, “fitted relative affinity” read 0.0952 z-score.
For `TATTACCTCATCTTCCTCTGCGTGCTA`, “fitted relative affinity” read 1.28 z-score.
Under “fitted relative affinity”, `ATCTGCAGCTGACTACACACGTGCTAG` is recorded as -0.292 z-score.
`GACGATTTCCGGACTGGAGACGTGCTA`: “fitted relative affinity” -0.0193 z-score.
For `TTATAACTGAGTCTCGATTAGTGCTAG`, “fitted relative affinity” read 2.71 z-score.
Under “fitted relative affinity”, `GACGATATCAGACTGGAGCCGTGCTAG` is recorded as -0.59 z-score.
`TTAGGTTTCCTTTCCCTTTGGTGCTAG`: “fitted relative affinity” 2.1 z-score.
`TTAGGTTCCCTTTTCCCTTAGTGCTAG` — result for “fitted relative affinity”: 0.915 z-score.
`GACGGTTTCCTTTTTCTGACGTGCTAG`: “fitted relative affinity” 2.11 z-score.
Under “fitted relative affinity”, `GAGGGTTTCGGACTGGGGACGTGCTAG` is recorded as 4.47 z-score.
`TTGGGTATCCTACTGCTTTAGTGCTAG` — result for “fitted relative affinity”: 0.012 z-score.
Under “fitted relative affinity”, `GACGGTTCCGGTGTCGGGACGTGCTAG` is recorded as 1.67 z-score.
`TTGTTTTTCATTATTGTCTTGTGCTAG`: “fitted relative affinity” 1.92 z-score.
`CCCTTTTCATGCTCTTATATAGTGCTA`: “fitted relative affinity” 1.47 z-score.
`TTTCCTTTGCCTCTGAGGCTGTGCTAG`: “fitted relative affinity” 1.44 z-score.
`TCCCCTCCGGGACCCGCCTCGTGCTAG`: “fitted relative affinity” -0.47 z-score.
Under “fitted relative affinity”, `TTAGGACTGGGGTATCGGTTCGTGCTA` is recorded as 2.28 z-score.

Excerpt of the above (study 4):
Under “fitted relative affinity”, `GACGGTACCGGGTTTCGGGACGTGCTA` is recorded as 2.31 z-score.
For `TATTACCTCATCTTCCTCTGCGTGCTA`, “fitted relative affinity” read 1.28 z-score.
`TTGGGTATCCTACTGCTTTAGTGCTAG` — result for “fitted relative affinity”: 0.012 z-score.
Under “fitted relative affinity”, `GAGGGTTTCGGACTGGGGACGTGCTAG` is recorded as 4.47 z-score.
Under “fitted relative affinity”, `GACGGACTGGGCATCGGGACGTGCTAG` is recorded as -0.79 z-score.
Under “fitted relative affinity”, `GACGATATCAGACTGGAGCCGTGCTAG` is recorded as -0.59 z-score.
Under “fitted relative affinity”, `TTAGGACTGGGGTATCGGTTCGTGCTA` is recorded as 2.28 z-score.
For `TTAGATATCGGGTACCGATTAGTGCTA`, “fitted relative affinity” read 0.0952 z-score.
For `TTATAACTGAGTCTCGATTAGTGCTAG`, “fitted relative affinity” read 2.71 z-score.
For `TCCTCTCTCTTTCCACTTGTGTGCTAG`, “fitted relative affinity” read 2.69 z-score.
`GACGGTTTCCTTTTTCTGACGTGCTAG`: “fitted relative affinity” 2.11 z-score.
